# Measurements of several laboratories.
# Compare with care: the assays were run in different laboratories. Numbers after ± are the reported error.
Structure (SMILES),target or system,test,test system,conditions,how to read,quantity,value
O=C(N/N=C/c1cc[n+](Cc2ccccc2)c2ccccc12)c1ccc2ccc3ccc(C(=O)N/N=C/c4cc[n+](Cc5ccccc5)c5ccccc45)nc3c2n1,hp2 hairpin duplex DNA,FRET melting,,1 µM,,ΔTm,1.8 ± 0.2 °C
CN1CCCNC(=O)c2cccc(c2)C(=O)NCCCN(C)CCCNc2cccc3c2C(=O)c2cccc(c2C3=O)NCCC1,SAS,"RNA-Seq, item: C12orf66 mRNA",,"1 µM, 6 h",relative to: untreated cells,log2 fold change,2.31
Cc1ncsc1-c1ccc(C(C)NC(=O)C2CC(O)CN2C(=O)C(NC(=O)CCCCCCCCCCN2CCCC(Nc3ncc(Cl)c(Nc4ccccc4S(=O)(=O)C(C)C)n3)C2)C(C)(C)C)cc1 (stereo not shown),22Rv1,"RNA-seq, item: ZIK1 mRNA",,concentration not given,relative to: DMSO,log2 fold change,-1.28
O=C(N/N=C/c1ccc(C[n+]2ccccc2)cc1)c1cc(C(=O)N/N=C/c2ccc(C[n+]3ccccc3)cc2)ncn1,MYC parallel G4 DNA,FRET melting,,"1 µM, DNA 0.2 µM, together with: duplex DNA competitor 10 µM",,ΔTm,3 ± 0.1 °C
C=CC(=O)Nc1cccc(Cn2ncc3cnc(Nc4cnn(CCOC)c4)nc32)c1,PIK3CD human,"binding, KINOMEscan",,100 nM,lower = stronger binding,percent of control,62%
CNS(=O)(=O)Nc1nccc(Cc2c(C)c3ccc(Oc4ncccc4F)cc3oc2=O)c1F,MOLM-13,cell viability,,7 days,,IC50,0.0298 µM
O=C(N/N=C/c1ccc2c(ccc[n+]2Cc2ccccc2)c1)c1cccc(C(=O)N/N=C/c2ccc3c(ccc[n+]3Cc3ccccc3)c2)n1,hp2 hairpin duplex DNA,FRET melting,,1 µM,,ΔTm,3.6 ± 1.9 °C
COCC/N=C(\S)N/N=C(\C)c1ccccc1O,Mus musculus,"gene silencing, high-content imaging",LDR reporter GFP cells,retest run 2,,AC50,12.6 µM
C[n+]1ccc(/C=N/NC(=O)c2cncc(C(=O)N/N=C/c3cc[n+](C)c4ccccc34)n2)c2ccccc21,hp2 hairpin duplex DNA,FRET melting,,"1 µM, together with: ds26 10 µM",,ΔTm,0.7 °C
COC1CN([C@H]2CC[C@H]([C@@]3(C)Oc4c(Cl)cc(C(=O)NCc5c(SC)cc(C)[nH]c5=O)c(C)c4O3)CC2)C1,,"RNA-seq, item: GADD45A mouse homolog","mouse, HT-1376 xenograft, whole blood",dose not given,relative to: vehicle,log2 fold change,1.33
C=CC(=O)N1[C@@H](c2ccc3c(c2)OCO3)c2[nH]c3ccccc3c2C[C@H]1C(=O)N1CCN(C)CC1,human cyclin E1 N112C-3xFLAG:CDK2,"co-IP with TMT proteomics, item: NPM1",,"concentration not given, P06748",relative to: wild type DMSO,relative co-enrichment,100%
Nc1ncc(-c2cc(-c3cnn(CC(F)(F)F)c3)ncc2F)nc1C(=O)NC1CNCC(F)C1 (stereo not shown),CSNK1A1,KINOMEscan,,1 µM,relative to: DMSO control,remaining binding,100%
CCCC(=O)N1CCN(c2ccc(NC(=O)c3ccc([N+](=O)[O-])o3)cc2Cl)CC1,Mus musculus,"gene silencing, high-content imaging",LDR reporter GFP cells,"30 h, retest run 1",,Emax,18%
